Assay results collected from several papers.
A part holds a random share of what one study measured.
Sequence of UniProt O00571 (132-607, looked up): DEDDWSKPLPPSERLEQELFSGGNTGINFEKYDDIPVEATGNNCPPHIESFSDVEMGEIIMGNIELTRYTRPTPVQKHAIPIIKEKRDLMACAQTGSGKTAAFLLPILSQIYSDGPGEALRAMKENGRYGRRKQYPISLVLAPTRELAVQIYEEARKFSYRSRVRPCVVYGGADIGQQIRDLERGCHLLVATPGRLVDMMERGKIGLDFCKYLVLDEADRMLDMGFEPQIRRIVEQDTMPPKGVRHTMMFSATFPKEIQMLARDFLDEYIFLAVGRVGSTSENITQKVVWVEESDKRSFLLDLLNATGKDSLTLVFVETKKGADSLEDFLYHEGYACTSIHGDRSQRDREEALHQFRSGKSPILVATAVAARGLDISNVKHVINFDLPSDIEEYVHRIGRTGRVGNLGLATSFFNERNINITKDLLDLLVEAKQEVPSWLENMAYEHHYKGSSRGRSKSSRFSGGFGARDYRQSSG

Series 1
Target: RING finger protein unkempt homolog, zinc fingers 1-6, GST-SBP tag (UNK, Homo sapiens, UniProt Q9C0B0, residues 30-357)
Technique: RNA Bind-n-Seq
Form: RNA
Matrix: in vitro
Concentration: not given
Notes: RNA with constant flanks, human-mouse chimeric sites, ends assumed
Baseline: input RNA pool
Direction: higher = stronger binding
Target sequence (chain): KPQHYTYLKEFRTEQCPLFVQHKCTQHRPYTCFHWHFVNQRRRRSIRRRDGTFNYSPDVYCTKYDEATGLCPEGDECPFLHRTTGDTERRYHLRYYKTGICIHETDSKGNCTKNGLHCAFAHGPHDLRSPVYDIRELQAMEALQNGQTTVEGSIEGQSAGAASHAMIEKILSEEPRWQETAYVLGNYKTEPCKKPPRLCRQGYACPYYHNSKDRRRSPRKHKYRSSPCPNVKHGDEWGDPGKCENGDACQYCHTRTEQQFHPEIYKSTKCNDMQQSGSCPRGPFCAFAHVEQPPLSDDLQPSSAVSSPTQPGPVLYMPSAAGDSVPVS
Oligonucleotide	bound/input enrichment [ratio]
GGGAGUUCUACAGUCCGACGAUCAGUGUGCAGGAAUUCAUGACCUUUACAAGUCAACUGAUUGUGGAACGCUCGGGGAAAGGCAGCAGAGCUUCUGUCAAAGAACAAGAGUAUCUGUGCCACGUCUACGUCCGGAGCGACAGUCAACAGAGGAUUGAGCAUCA	0.0833
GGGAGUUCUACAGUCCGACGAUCUUACCCGAGAACGAGGAUGAGCUGGAGAGCACCAAUAGGCGCUACACCAAGAGGGACUGCAGCACUUUUCUCAGAACUAGUGAGACGGGCAUCGUGGACCAGGUCAUGGUCACUCUCAACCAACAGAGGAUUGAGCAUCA	0.275
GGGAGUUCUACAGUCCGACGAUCCUGAGGAAUACCACUGAGAGACCUUAAAAGAAUCAUUUGAGGGCUCUGUUCGUGCAAGAAUAGUCACCUGACCGGGAACUGGUUCUUCCAAAGGGUUUGGUUUUGUAGACUUUAAUAGUGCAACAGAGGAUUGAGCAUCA	0.818
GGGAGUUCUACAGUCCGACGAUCUCAGGAACUCAGACAAACAUGAAUGUAAAUGAAGUCAUUAGCAACAGAGCAAUUGAAAUGUUAGGAGGUGAACUUGGCAGCAAGAAGCCUGUGCACCCCAAUGAUCAUGUUAACAAAAGCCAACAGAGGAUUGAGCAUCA	0.189
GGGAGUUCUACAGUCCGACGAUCUAAAUUAGGGCUGCCGUUUUCUGUUUCUCCCUGGGCUGCAGACAGCUAGAAGAUUUUAUCUAGCUUAAACCAGGCUGCUGGUGUUCCCUCUUUUUUUCCACGAGGGUGUUUUUGGCUGCACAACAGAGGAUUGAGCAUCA	0.485
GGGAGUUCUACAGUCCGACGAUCCAGUCCCCGUGUCCCAGUGCAGGACGAUGUGAACAAAAACUCAAAGCGGACCCUCUAUUGUAGUUCUUGAUUCUCGAAAUGUGCUAUUGUUUUUAAAAAAAAAGGAAUUUUUUUUAAAGACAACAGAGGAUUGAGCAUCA	0.155
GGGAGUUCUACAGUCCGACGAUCUGGCGCCUGCGCUCCCCACUCGUGUUUUUAAGUGUAUUUUUAUAAGAUACAUGUAUUUACAAUUGAGUUUUUGAUUAAUAAUGCUGAAAUGCUACUGGAGAUUAUGAAAAAAUGUUAAAUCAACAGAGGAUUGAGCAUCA	0.254
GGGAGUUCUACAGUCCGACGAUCGCAGGAUCUUCUAAAUACCAGUGGGACAUUAUGAAAUCCCUUGGCCUCUCUGAUGACGACAUAGUGAAGUUUUCUGAAGCAGAGCACUGGCUUGAUUAUUUCCCACCACUGGCCGUUCAGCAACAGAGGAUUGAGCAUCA	0.187

Series 2
Target: Histone acetyltransferase KAT6A, winged helix 2, GST fusion (KAT6A, Homo sapiens, UniProt Q92794, residues 85-181)
Technique: protein binding microarray
Form: double-stranded DNA, one strand shown
Matrix: in vitro
Concentration: not given
Notes: 8-mer, flanks averaged, mean of 2 arrays, mostly near background
Baseline: not given
Direction: higher = stronger binding
Construct (chain): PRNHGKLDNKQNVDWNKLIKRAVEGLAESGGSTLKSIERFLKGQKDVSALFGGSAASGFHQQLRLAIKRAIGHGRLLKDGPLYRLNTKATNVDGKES
Oligonucleotide	E-score
TACCCATA	-0.188
GGTCATTA	-0.0672
GATGATCA	-0.0833
ACGCAGCC	0.142
ATGGTACC	-0.134
ATGGACGG	0.156
CTCACCGC	0.113
AAAAAATA	-0.0677

Series 3
Cell line: HEK-293T/ACE2
Concentration: concentration not given
Time: 16 (unit not given)
Baseline: vehicle
Structure (SMILES)	viability [%]
O=C1[C@H](CC[C@H](O)c2ccc(F)cc2)[C@@H](c2ccc(O)cc2)N1c1ccc(F)cc1	102
CCc1nn(CCCN2CCN(c3cccc(Cl)c3)CC2)c(=O)n1CCOc1ccccc1	96.4
CCOC(=O)[C@H](CCc1ccccc1)N[C@H]1CCc2ccccc2N(CC(=O)O)C1=O	105
C=C1C[C@@H]2[C@H](CC[C@]3(C)C(=O)CC[C@@H]23)[C@@]2(C)C=CC(=O)C=C12	103
CCOC(=O)c1ncn2c1CN(C)C(=O)c1cc(F)ccc1-2	100

Series 4
Target: Replicase polyprotein 1ab, polymerase (rep, Severe acute respiratory syndrome coronavirus 2, UniProt P0DTD1)
Effect on: enzyme activity
Action: inhibitor
Concentration: 20 µM
Compound	inhibition
O=C(Oc1ccccc1)c1ccccc1O	0.03%
O=C(c1c(O)c2ccc(Cl)cc2[nH]c1=O)C1CC1	7.35%
COC(=O)c1ccccc1-c1c2ccc(=N)cc-2oc2cc(N)ccc12	60.4%
Oc1cc(Cl)ccc1Oc1ccc(Cl)cc1Cl	-0.44%
C=C1CC[C@H](O)C/C1=C/C=C1\CCC[C@]2(C)[C@@H]([C@H](C)/C=C/[C@H](C)C(C)C)CC[C@@H]12	15.6%
C=C1/C(=C\C=C2/CCC[C@]3(C)[C@@H]([C@H](C)/C=C/[C@@H](O)C4CC4)CC[C@@H]23)C[C@@H](O)C[C@@H]1O	-6.14%
COc1ccc(CC(=O)NC(N=C(NC#N)Nc2cccc3ncccc23)C(C)(C)C)cc1OC (stereo not drawn)	2.57%
O=C(O)c1ccccc1	-5.97%
CCc1[nH]c(=O)[nH]c1C(=O)c1ccncc1	2.08%
O=C1C(O)=C(O)C(=O)C(O)=C1O	1.91%
O=C1NC(=O)c2c1c1c3ccccc3[nH]c1c1[nH]c3ccccc3c21	2.9%
CCCC(=O)OCOC(=O)C1=C(C)NC(C)=C(C(=O)OC)C1c1cccc(Cl)c1Cl (stereo not drawn)	0.77%
CCOC(=O)[C@H](CCc1ccccc1)N[C@@H](C)C(=O)N(CC(=O)O)C1Cc2ccccc2C1	-0.52%
COc1ccc2[nH]c(-c3ccccc3)c(CCNC(C)=O)c2c1	1.01%
O=C(O)c1cc(O)c2c3nc4ccccc4oc-3cc(=O)c2n1	5.96%
Cc1ccc(Cl)c(Nc2ccccc2C(=O)O)c1Cl	26.9%
O=C(Nc1ccc(Oc2ccc(Cl)cn2)c(Cl)c1)c1ccccn1	1.15%
CC#CCC(C)[C@H](O)/C=C/[C@@H]1[C@H]2C/C(=C/CCCC(=O)O)C[C@H]2C[C@H]1O (stereo partly drawn)	-4.53%
CCCCC1(C2CCCC2)Cc2cc(OCCCC(=O)O)c(Cl)c(Cl)c2C1=O (stereo not drawn)	-6.95%
C/C=C1\NC(=O)[C@H]2CSSCC/C=C/[C@H](CC(=O)N[C@H](C(C)C)C(=O)N2)OC(=O)[C@H](C(C)C)NC1=O	2.98%
CC(O)(C(=O)Nc1ccc(S(=O)(=O)c2ccccc2)cc1)C(F)(F)F (stereo not drawn)	2.48%
O=C(O)c1nc(=O)[nH]c(=O)[nH]1	-1.96%
COc1ccc(Cn2ccc3ccc(C(=O)NO)cc32)cc1	-3.99%
CC(=O)O[C@H]1C[C@@H]2CC[C@@H]3[C@H](CC[C@@]4(C)[C@H]3C[C@H]([N+]3(C)CCCCC3)[C@@H]4OC(C)=O)[C@@]2(C)C[C@@H]1[N+]1(C)CCCCC1	-6.77%
Cc1nnc(SCC2=C(C(=O)O)N3C(=O)[C@@H](NC(=O)Cn4cnnn4)[C@H]3SC2)s1	3.01%

Series 5
Target: Replicase polyprotein 1ab, main protease (rep, Severe acute respiratory syndrome coronavirus 2, UniProt P0DTD1)
Effect on: enzyme activity
Action: inhibitor
Notes: without DTT
SMILES	IC50
C[C@@H](CN1CC(=O)NC(=O)C1)N1CC(=O)NC(=O)C1	6200 nM
O=C(O)c1c(Cl)c(Cl)c(Cl)c(Cl)c1-c1c2cc(I)c(=O)c(I)c-2oc2c(I)c(O)c(I)cc12	> 20000 nM
C/N=c1/nc(-c2ccccc2)n(-c2ccccc2)s1	1000 nM
COC(=O)CC[C@H](NC(=O)[C@H](CC(=O)OC)NC(=O)OCc1ccccc1)C(=O)N[C@H](C(=O)N[C@@H](CC(=O)OC)C(=O)CF)C(C)C	10 nM

Other studies, line by line
Oligonucleotide	target	test	test system	setting	how to read	measurement	result
CGGA	ATP-dependent RNA helicase DDX3X, helicase core (DDX3X, Homo sapiens, UniProt O00571, residues 132-607)	RNA Bind-n-Seq	RNA, in vitro	90 pmol, 4-mer, random 30-nt RNA, single round, together with: 3 µM iPr-DMDA-PatA, 2 mM ADP, 2 mM phosphate	baseline: input library, higher = stronger binding	4-mer enrichment	0.985 fold

For quick reference, copied from above (series 4):
Compound	inhibition
COC(=O)c1ccccc1-c1c2ccc(=N)cc-2oc2cc(N)ccc12	60.4%
Oc1cc(Cl)ccc1Oc1ccc(Cl)cc1Cl	-0.44%
C=C1CC[C@H](O)C/C1=C/C=C1\CCC[C@]2(C)[C@@H]([C@H](C)/C=C/[C@H](C)C(C)C)CC[C@@H]12	15.6%
